Published values from different studies.
Numbered parts are unrelated; each lists some results of a single study.
Sequence of UniProt P10721 (whole entry, unmodified, looked up): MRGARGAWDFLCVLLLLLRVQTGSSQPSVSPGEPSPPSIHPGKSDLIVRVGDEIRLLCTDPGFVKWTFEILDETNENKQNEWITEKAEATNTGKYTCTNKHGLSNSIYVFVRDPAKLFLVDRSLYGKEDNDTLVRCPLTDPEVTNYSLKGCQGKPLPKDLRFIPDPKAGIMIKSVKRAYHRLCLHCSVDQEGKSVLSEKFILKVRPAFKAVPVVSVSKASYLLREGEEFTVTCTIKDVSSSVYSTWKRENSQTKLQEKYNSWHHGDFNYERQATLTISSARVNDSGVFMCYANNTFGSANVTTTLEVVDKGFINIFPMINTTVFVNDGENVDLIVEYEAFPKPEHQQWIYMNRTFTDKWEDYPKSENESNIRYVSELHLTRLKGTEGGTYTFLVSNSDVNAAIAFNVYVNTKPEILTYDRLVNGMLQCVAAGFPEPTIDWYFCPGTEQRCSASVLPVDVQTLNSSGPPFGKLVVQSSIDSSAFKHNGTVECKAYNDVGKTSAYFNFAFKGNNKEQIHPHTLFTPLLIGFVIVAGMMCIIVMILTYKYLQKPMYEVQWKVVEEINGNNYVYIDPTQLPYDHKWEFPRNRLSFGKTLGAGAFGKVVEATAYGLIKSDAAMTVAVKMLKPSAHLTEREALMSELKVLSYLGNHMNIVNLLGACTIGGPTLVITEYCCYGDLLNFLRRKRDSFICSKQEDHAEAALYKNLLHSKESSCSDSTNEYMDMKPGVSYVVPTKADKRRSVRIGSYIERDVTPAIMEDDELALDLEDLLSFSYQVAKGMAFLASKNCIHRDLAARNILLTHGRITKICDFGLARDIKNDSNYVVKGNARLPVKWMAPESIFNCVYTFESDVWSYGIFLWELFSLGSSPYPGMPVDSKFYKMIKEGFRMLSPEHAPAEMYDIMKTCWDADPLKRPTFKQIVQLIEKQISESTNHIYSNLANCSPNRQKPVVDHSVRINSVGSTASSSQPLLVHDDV
Sequence of UniProt Q9UKI8 (whole entry, looked up): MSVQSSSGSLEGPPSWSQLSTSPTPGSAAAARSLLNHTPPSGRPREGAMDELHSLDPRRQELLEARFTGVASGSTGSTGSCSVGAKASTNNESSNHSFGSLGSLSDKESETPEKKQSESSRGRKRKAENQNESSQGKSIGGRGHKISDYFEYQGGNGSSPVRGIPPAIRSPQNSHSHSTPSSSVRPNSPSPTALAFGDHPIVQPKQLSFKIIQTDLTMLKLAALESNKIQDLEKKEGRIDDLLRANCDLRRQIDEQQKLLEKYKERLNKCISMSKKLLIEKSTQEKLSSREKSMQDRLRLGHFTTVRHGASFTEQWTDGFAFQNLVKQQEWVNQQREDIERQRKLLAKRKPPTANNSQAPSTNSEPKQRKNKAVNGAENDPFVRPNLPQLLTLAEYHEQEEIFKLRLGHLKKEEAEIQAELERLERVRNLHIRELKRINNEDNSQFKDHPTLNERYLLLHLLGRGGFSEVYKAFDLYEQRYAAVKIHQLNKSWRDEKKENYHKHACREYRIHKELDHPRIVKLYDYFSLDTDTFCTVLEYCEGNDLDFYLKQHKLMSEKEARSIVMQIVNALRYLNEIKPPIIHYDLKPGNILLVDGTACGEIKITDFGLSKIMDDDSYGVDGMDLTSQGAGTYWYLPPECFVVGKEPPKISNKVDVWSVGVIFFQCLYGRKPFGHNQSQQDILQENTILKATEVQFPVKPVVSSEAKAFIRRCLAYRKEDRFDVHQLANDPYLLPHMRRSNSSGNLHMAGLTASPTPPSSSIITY
Sequence of UniProt Q9H2G2 (whole entry, looked up): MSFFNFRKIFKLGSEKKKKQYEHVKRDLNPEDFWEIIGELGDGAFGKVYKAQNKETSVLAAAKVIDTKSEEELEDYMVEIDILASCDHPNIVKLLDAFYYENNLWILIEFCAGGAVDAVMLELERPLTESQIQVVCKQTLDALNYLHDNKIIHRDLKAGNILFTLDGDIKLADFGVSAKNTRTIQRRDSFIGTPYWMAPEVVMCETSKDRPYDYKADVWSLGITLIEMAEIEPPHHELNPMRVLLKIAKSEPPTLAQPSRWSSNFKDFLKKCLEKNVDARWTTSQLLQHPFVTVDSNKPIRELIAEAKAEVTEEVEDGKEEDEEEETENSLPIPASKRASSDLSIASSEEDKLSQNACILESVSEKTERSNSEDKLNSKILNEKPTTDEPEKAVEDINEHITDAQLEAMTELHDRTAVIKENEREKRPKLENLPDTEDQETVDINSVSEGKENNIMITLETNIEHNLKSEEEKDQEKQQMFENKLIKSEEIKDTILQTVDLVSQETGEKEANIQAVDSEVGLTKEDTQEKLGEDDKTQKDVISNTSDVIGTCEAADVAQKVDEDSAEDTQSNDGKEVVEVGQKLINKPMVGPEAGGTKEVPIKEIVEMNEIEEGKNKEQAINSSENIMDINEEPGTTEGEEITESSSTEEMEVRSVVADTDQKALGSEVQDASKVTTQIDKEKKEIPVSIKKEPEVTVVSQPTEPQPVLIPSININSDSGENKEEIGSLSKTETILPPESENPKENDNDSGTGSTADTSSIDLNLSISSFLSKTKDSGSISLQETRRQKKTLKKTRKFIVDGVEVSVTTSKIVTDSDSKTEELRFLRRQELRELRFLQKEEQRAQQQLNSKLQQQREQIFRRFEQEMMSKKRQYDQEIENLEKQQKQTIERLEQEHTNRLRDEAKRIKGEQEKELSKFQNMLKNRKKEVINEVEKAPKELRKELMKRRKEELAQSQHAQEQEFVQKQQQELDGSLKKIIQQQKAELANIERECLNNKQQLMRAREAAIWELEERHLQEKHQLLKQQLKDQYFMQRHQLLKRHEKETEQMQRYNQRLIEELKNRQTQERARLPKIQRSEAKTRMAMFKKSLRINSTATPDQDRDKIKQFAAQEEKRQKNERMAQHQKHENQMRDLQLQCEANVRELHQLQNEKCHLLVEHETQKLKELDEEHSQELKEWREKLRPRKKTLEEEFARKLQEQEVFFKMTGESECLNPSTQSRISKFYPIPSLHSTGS
Sequence of UniProt P53779 (whole entry, looked up): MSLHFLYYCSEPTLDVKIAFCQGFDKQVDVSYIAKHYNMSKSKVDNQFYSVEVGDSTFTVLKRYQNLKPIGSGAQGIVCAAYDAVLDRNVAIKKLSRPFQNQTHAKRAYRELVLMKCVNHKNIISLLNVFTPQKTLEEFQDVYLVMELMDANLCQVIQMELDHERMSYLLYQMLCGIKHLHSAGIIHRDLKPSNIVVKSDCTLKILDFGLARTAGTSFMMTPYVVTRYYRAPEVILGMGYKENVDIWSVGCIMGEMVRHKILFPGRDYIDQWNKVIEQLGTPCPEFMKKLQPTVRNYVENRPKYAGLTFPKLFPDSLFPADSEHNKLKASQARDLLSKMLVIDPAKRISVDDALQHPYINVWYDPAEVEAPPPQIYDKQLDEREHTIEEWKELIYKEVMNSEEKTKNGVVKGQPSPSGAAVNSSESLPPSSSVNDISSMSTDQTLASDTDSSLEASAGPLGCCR
Sequence of UniProt Q9UKE5 (whole entry, looked up): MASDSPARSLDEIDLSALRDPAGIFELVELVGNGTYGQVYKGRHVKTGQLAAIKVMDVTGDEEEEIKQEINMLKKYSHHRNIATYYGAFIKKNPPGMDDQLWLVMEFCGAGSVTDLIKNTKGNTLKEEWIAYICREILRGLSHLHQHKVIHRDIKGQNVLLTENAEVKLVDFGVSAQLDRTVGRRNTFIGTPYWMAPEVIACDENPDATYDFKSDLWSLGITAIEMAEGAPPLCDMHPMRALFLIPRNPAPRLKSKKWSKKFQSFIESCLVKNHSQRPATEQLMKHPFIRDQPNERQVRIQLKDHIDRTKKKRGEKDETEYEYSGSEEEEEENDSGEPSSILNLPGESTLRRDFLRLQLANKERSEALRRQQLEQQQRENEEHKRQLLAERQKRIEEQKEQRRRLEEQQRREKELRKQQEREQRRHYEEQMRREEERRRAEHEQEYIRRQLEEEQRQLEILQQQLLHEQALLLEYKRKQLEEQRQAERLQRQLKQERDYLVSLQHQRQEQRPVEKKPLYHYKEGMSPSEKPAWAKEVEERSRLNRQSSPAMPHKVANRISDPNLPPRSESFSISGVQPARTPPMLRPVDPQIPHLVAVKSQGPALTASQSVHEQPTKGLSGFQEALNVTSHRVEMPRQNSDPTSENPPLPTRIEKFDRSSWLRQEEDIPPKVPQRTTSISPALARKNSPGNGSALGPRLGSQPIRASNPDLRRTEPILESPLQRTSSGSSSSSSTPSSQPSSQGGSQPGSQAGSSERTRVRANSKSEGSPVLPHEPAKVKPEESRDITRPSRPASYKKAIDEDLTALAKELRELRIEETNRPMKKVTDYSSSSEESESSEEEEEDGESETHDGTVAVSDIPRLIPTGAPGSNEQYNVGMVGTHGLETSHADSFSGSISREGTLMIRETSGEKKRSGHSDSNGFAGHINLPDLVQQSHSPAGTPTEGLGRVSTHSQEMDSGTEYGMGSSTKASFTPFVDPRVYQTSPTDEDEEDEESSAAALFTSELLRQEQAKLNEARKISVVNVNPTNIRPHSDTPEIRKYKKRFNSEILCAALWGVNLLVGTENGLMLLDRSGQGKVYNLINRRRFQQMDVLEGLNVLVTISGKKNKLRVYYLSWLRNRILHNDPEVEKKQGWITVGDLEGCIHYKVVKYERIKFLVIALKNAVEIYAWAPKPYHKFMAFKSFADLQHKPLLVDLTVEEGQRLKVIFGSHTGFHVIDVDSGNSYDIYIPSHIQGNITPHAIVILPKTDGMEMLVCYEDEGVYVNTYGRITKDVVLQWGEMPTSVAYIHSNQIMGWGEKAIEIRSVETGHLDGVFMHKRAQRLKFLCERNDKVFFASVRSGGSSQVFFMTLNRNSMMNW

Block 1
SMILES: CCCOc1ccc([C@H]2[C@H](C(=O)O)[C@@H](c3ccc4c(c3)OCO4)CN2CC(=O)Nc2c(CC)cccc2CC)cc1
Effect on: cell-free assay
Technique: competition with immobilised ligand
Concentration: 1 µM
| target | remaining binding |
| --- | --- |
| INSRR (Homo sapiens, UniProt P14616) | 94% |
| FGR (Homo sapiens, UniProt P09769) | 98% |
| Mast/stem cell growth factor receptor Kit, autoinhibited (KIT, Homo sapiens, UniProt P10721) | 92% |
| TLK1 (Homo sapiens, UniProt Q9UKI8) | 74% |
| TNIK (Homo sapiens, UniProt Q9UKE5) | 88% |
| PIM1 (Homo sapiens, UniProt P11309) | 85% |
| MAP3K1 (Homo sapiens, UniProt Q13233) | 71% |
| MAPK10 (Homo sapiens, UniProt P53779) | 80% |
| KIT (Homo sapiens, UniProt P10721, L576P) | 90% |
| WEE2 (Homo sapiens, UniProt P0C1S8) | 85% |

Block 2
SMILES: NC(=O)c1ccc(N(C(N)=O)c2c(F)cccc2F)nc1-c1ccc(F)cc1F
Effect on: enzyme activity
Action: inhibitor
Concentration: 0.5 µM
Baseline: control
| target | remaining activity |
| --- | --- |
| PRKD1 (Homo sapiens, UniProt Q15139) | 97.7% |
| DYRK4 (Homo sapiens, UniProt Q9NR20) | 96.3% |
| Cyclin-dependent kinase 2, with cyclin A (CDK2, Homo sapiens, UniProt P24941) | 87.8% |
| BRSK1 (Homo sapiens, UniProt Q8TDC3) | 94.2% |
| SLK (Homo sapiens, UniProt Q9H2G2) | 90.7% |
| ROCK2 (Homo sapiens, UniProt O75116) | 97.7% |
| HIPK3 (Homo sapiens, UniProt Q9H422) | 98.4% |
| Aurora kinase A (AURKA, Homo sapiens, UniProt O14965) | 86.4% |
| MAP3K8 (Homo sapiens, UniProt P41279) | 94.3% |
| EGFR (Homo sapiens, UniProt P00533) | 92.7% |
| DMPK (Homo sapiens, UniProt Q09013) | 104% |
| CDK7 (Homo sapiens, UniProt P50613) | 102% |
| CSNK2A2 (Homo sapiens, UniProt P19784) | 109% |
| ROS1 (Homo sapiens, UniProt P08922) | 95% |

Block 3
Target: UBE2B UBC core domain (UniProt P63146)
Sequence of UniProt P63146 (whole entry, looked up): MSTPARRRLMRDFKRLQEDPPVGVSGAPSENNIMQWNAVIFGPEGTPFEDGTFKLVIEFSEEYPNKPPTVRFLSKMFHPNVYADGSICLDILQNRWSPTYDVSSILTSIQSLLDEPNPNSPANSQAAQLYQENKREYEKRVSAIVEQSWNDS
Technique: yeast two-hybrid
Matrix: yeast
Notes: mostly zero background
Baseline: not given
Direction: higher = stronger interaction
B1: TRIM28 RING domain (UniProt Q13263); chain GAEALELLEHCGVCRERLRPEREPRLLPCLHSACSACLGPAAPAAANSSGDGGAAGDGTVVDCPVCKQQCFSKDIVE
B2: RNF10 RING domain (UniProt Q8N5U6); chain VRICSHEVPSCPICLYPPTAAKITRCGHIFCWACILHYLSLSEKTWSKCPICYSSVHKKDLKS
B3: SHPRH RING domain (UniProt Q149N8); chain KTSGGVNPEPCPICARQLGKQWAVLTCGHCFCNECISIIIEQYSVGSHRSSIKCAICRQTTSHKEISY
| Sequence | lacZ reporter activity |
| --- | --- |
| AAQLLEEKLTCAICLGLYQDPVTLPCGHNFCGACIRDWWDRCGKACPECREPFPDGAELR (TRIM65 RING domain (UniProt Q6PJ69)) | 0 |
| B1 (TRIM28 RING domain) | 0 |
| GSEEEEIPFRCFICRQAFQNPVVTKCRHYFCESCALEHFRATPRCYICDQPTGGIFNPA (RNF113B RING domain (UniProt Q8IZP6)) | 0 |
| PLRRLQEEKLCKICMDRHIAVVFIPCGHLVTCKQCAEAVDRCPMCSAVIDFKQRVF (BIRC8 RING domain (UniProt Q96P09)) | 0 |
| B2 (RNF10 RING domain) | 0 |
| EDVLSKDAGECAICLEELQQGDTIARLPCLCIYHKGCIDEWFEVNRSCPEHPSD (ZNRF2 RING domain (UniProt Q8NHG8)) | 0 |
| VPADASPDSKCPICLDRFDNVSYLDRCLHKFCFRCVQEWSKNKAECPLCKQPFDSIFHSV (TOPORS RING domain (UniProt Q9NS56)) | 0 |
| B3 (SHPRH RING domain) | 0 |

Single results of other studies
| Substance | partner | assay | test system | setting | quantity | value |
| --- | --- | --- | --- | --- | --- | --- |
| DEK (Homo sapiens, UniProt P35659) | CCDC112 (Homo sapiens, UniProt Q8NEF3) | cross-linking MS | cell fractions | added: DSSO | cross-linked residues | K57 to K393 |

Some of these lines once more (block 2):
| target | remaining activity |
| --- | --- |
| BRSK1 (Homo sapiens, UniProt Q8TDC3) | 94.2% |
| SLK (Homo sapiens, UniProt Q9H2G2) | 90.7% |
| ROCK2 (Homo sapiens, UniProt O75116) | 97.7% |
